{"data": "Experimental data from different studies", "note": "Numbered parts are unrelated; each lists some results of a single study."}
{"data": "Block 1", "target": "Fragile X messenger ribonucleoprotein 1, C-terminal low-complexity region (Fmr1, Mus musculus, UniProt P35922)", "method": "RNA Bind-n-Seq", "form": "RNA", "medium": "in vitro", "concentration": "200 nM", "setting": "whole 134-nt RNA, ends assumed", "with": "150 mM KCl", "baseline": "input library", "direction": "higher = stronger binding", "constant ends, left off below": "GGGAGUUCUACAGUCCGACGAUC … UGGAAUUCUCGGGUGUCAAGG"}
{"Oligonucleotide": "UGGCCCUGGUGGCAUGAGGGGAGGAAGAGGUGGCCUCAUGGAUCGUGGUGGUCCCGGUGGAAUGUUCAGAGGUGGCCGUGGUGGAGACAG", "log2 enrichment": 0.259}
{"Oligonucleotide": "CUCAAGUCCUGUGCUACACAUCGUAUGUACCGAAUCGGUUUUUGGUUUGGUGGAAAGUAUUAUGUUACGCCGUUCGGAUCUGCACUUCCA", "log2 enrichment": -0.411}
{"Oligonucleotide": "GCAGGAAGUAAAAACAGAUGGAAAUGCUUCGGAUAGUGGCAGGGGUGGGGGUUGCUAAGGAAAGGGUGGGAUGGGAGUGGGUAAAGAGUU", "log2 enrichment": 0.669}
{"Oligonucleotide": "UGGCCGUGGUGGCAUGCGGGGAGGAAGAGGUGGCCUCAUGGAUCGUGGUGGUCCCGGUGGAAUGUUCAGAGGUGGCCGUGGUGGAGACAG", "log2 enrichment": 0.349}
{"Oligonucleotide": "UCAAGUCCUGUGCUACACAUCGUAUGUACCGAAUCGGUGGUUUGGUUUUUUUGGAAAGUAUUAUGUUACGCCGUUCGGAUCUGCACUUCC", "log2 enrichment": -0.483}
{"Oligonucleotide": "UGGGAGGUGGAUUUUGUUUAUUUUUUUAGCUCAUUUCCAGGGGUGGGAAUUUUUUUUUAAUAUGUGUCAUGAAUAAAGGUGUUUUUGAAA", "log2 enrichment": 0.218}
{"Oligonucleotide": "GUCCUGUGCUACACAUCGUAUGUACCGAAUCGGGGAAAGGGGUGGGGAAAAAAAGGGGAAAGUAUUAUGUUACGCCGUUCGGAUCUGCAC", "log2 enrichment": 0.333}
{"Oligonucleotide": "UCCUCAAGUCCUGUGCUACACAUCGUAUGUACCGAAUCGGAAAGGAGGAGGAAAGUAUUAUGUUACGCCGUUCGGAUCUGCACUUCCAGC", "log2 enrichment": -0.671}
{"Oligonucleotide": "GAGCUGGAAGCUAUCAAAGCUCGAGUCAGGGAGAUGGAGGAAGAAGCUGAGAAGCUAAAGGAGCUACAGAACGAGGUAGAGAAGCAGAUG", "log2 enrichment": -0.314}
{"data": "Block 2", "target": "Sal-like protein 4, full length isoform A (SALL4, Homo sapiens, UniProt Q9UJQ4, residues 1-1053)", "method": "universal PBM", "form": "double-stranded DNA, one strand shown", "medium": "in vitro", "concentration": "600 nM", "setting": "8-mer, flanks averaged, mean of replicates", "direction": "higher = stronger binding", "sequence of UniProt Q9UJQ4 (whole entry, looked up)": "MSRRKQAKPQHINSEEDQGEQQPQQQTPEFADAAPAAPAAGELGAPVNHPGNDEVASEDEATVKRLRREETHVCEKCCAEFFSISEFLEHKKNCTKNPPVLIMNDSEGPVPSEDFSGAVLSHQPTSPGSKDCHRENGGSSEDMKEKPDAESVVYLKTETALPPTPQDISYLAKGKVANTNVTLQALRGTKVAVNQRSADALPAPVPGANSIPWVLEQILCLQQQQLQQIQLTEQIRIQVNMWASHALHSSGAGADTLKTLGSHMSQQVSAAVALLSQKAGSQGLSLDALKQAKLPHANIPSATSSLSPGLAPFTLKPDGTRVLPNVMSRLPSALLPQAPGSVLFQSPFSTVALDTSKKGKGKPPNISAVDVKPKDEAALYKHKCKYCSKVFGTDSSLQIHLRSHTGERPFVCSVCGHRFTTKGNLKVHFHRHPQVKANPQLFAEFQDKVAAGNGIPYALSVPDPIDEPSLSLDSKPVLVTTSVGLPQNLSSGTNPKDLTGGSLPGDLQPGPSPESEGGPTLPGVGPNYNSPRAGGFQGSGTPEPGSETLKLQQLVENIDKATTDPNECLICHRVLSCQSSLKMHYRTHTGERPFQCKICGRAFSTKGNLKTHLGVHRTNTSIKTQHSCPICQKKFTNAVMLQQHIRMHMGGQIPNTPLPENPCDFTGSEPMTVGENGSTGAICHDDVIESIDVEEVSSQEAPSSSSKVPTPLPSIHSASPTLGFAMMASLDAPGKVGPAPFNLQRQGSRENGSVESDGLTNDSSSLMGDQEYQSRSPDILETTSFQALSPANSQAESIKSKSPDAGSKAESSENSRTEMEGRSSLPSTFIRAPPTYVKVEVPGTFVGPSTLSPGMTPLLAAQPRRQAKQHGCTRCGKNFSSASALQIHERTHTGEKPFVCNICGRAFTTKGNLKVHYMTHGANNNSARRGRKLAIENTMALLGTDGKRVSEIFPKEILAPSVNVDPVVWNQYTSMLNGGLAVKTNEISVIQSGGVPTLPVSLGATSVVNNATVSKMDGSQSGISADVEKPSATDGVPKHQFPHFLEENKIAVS"}
{"Oligonucleotide": "GCTAGAGC", "E-score": -0.174}
{"Oligonucleotide": "TAGGAAAA", "E-score": 0.231}
{"Oligonucleotide": "AACACCGG", "E-score": -0.087}
{"Oligonucleotide": "CACTTGCG", "E-score": -0.124}
{"Oligonucleotide": "AAATTTTG", "E-score": 0.29}
{"Oligonucleotide": "CATCAGTC", "E-score": -0.158}
{"Oligonucleotide": "ACGTTAAC", "E-score": 0.0935}
{"Oligonucleotide": "AAGGTGAG", "E-score": -0.113}
{"data": "Block 3", "target": "RNA binding protein fox-1 homolog 2, RRM domain, GST-SBP tag (RBFOX2, Homo sapiens, UniProt O43251-10, residues 100-194)", "method": "RNA Bind-n-Seq", "form": "RNA", "medium": "in vitro", "concentration": "365 nM", "setting": "natural RNA segment, single round, ends assumed", "baseline": "no-protein control", "direction": "higher = stronger binding", "constant ends, left off below": "GGGAGUUCUACAGUCCGACGAUC … UGGAAUUCUCGGGUGCCAA", "Residues (chain)": "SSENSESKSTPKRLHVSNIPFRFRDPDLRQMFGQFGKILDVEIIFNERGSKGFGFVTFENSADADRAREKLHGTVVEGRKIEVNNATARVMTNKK"}
{"Oligonucleotide": "UCACUCUGCUGUCAGGUACAGGUCAAGUUCUUGGGGCCCACUUCUGAGUUUAGAAGACCUAUUACAAAAAGUGAAGAACUAGACUGUGGGAAAAUAAAUGGCUUUUGACU", "RBNS enrichment (R)": 0.354}
{"Oligonucleotide": "CUAAAUGAAGGUUAAAACAUGCUUAAGAAAAAUGCACUGAUUUCUGCAUUAUGUGUACAGUAUUGGACAAAGGAUUUUAUUCAUUUUGUUGCAUUAUUUUGAAUAUUGUC", "RBNS enrichment (R)": 0.907}
{"Oligonucleotide": "CCCCUUAAAAAAAGAAAAAAAUUACCAAACAAUAAACUUGGCUAGACCUUGUUUUGAGGAUUUUACAAGACCUUUGUAGCGAUUAGAUUUUUUUUCUACAUUGAAAAUAG", "RBNS enrichment (R)": 0.636}
{"Oligonucleotide": "CGGCUUGUGAUCUGAAAAGUUCUCUAGGGUACCCUGGUUUUUGAAAUAUGCCUUCCUGCUGAGCUGAAGUCUUUCAUUCCACUUCACUGGGGGAGCAGCUGAGGCUUGGG", "RBNS enrichment (R)": 0.518}
{"Oligonucleotide": "GUUUGUGAGAAGAGCAGAAUCACGGAGACGCAAUCCUGACCACUGACUACAAGAGGAGCAACCCAGAGGAUACACUCCCCUCUCUGGUGUCUGAGGAGUGUGAACCGUUG", "RBNS enrichment (R)": 0.382}
{"Oligonucleotide": "UGCGUCCUCUGGGACCUUCUUAGAUGCUGUAAGGUACCUACAUACAGACUAAAUGUGCAAGCACCUUGAAGUGUGAGAACCUGUCCCCUCCUUAGCUCUCCUUGUCUUUG", "RBNS enrichment (R)": 0.427}
{"Oligonucleotide": "GGGUUAAGAGAACCAUUUAAAGUAUUUUGUUCAUUAAAUGCCUCUUUCCAAAAAUGGAAGAUCCAAAAAUGGGGAUGUUUUAUGUACCCGGGUUAUUUUGUAUGAAUUCA", "RBNS enrichment (R)": 0.916}
{"Oligonucleotide": "CUCCCACCUGUUCAGGUUGUGGCAGCCUCUGUGCAGGUUGGAUGUGGAAAUAAAAGCAACCCUGUGUGAGAAUGCUGUCCUGAUCUCUUUGUAGCUCAGAGUGGCCUUGA", "RBNS enrichment (R)": 0.422}
{"data": "Further values, each from its own experiment"}
{"Molecule": "PhoQ, residues 284 288 289 292 302 303 SSYNSA", "target": "PhoP, residues 12 14 15 18 19 MHTVL (Escherichia coli, UniProt P23836)", "assay": "Sort-seq, refers to: YFP reporter", "system": "E. coli", "setting": "PhoQ-PhoP variant library, with: 10 µM Mg2+", "how to read": "baseline: high Mg2+ state, higher = stronger signaling", "measurement": "fold induction", "result": 20.7}
{"note": "A few entries again (block 3):"}
{"Oligonucleotide": "CUAAAUGAAGGUUAAAACAUGCUUAAGAAAAAUGCACUGAUUUCUGCAUUAUGUGUACAGUAUUGGACAAAGGAUUUUAUUCAUUUUGUUGCAUUAUUUUGAAUAUUGUC", "RBNS enrichment (R)": 0.907}
{"Oligonucleotide": "CCCCUUAAAAAAAGAAAAAAAUUACCAAACAAUAAACUUGGCUAGACCUUGUUUUGAGGAUUUUACAAGACCUUUGUAGCGAUUAGAUUUUUUUUCUACAUUGAAAAUAG", "RBNS enrichment (R)": 0.636}
